Published values pooled from the literature.
Protocols differ between the studies behind these lines. Numbers after ± are the reported error.
KLRK1 with MICA: NKG2-D type II integral membrane protein, with MICA (KLRK1, Homo sapiens, UniProt P26718)
OGT: UDP-N-acetylglucosamine--peptide N-acetylglucosaminyltransferase 110 kDa subunit (OGT, Homo sapiens, UniProt O15294)
KCNQ3/KCNQ2: Voltage-gated potassium channel, KQT; KCNQ2(Kv7.2)/KCNQ3(Kv7.3) (KCNQ3/KCNQ2, Homo sapiens, UniProt O43525+O43526)
lasR: Transcriptional activator protein LasR (lasR, Pseudomonas aeruginosa, UniProt P25084)

Compound = CCOC(=O)/C=C/[C@H](C[C@@H]1CCNC1=O)NC(=O)[C@H](Cc1ccccc1)NC(=O)[C@H](COC(C)(C)C)NC(=O)OCc1ccccc1; target = Genome polyprotein, 3C protease (Human parechovirus 1, UniProt Q66578); test = protease activity, cell-based reporter; system = human parechovirus; quantity = FLuc reporter expression; result = no effect
Compound = COP(=O)(O)O; target = Alkaline phosphatase PafA (pafA, Elizabethkingia meningoseptica, UniProt Q9KJX5, N100A); system = Chryseobacterium meningosepticum; conditions = pH 8.0; how to read = baseline: wild type over mutant kcat/KM; quantity = relative catalytic efficiency; result = 390
Compound = CNC(=O)C(NC(=O)c1ccccc1-c1ccc(C(F)(F)F)cc1)c1cccc(C(F)(F)F)c1 (stereo not drawn); target = KLRK1 with MICA; test = ligand binding, inhibitor, TR-FRET; system = HEK293 expressing NKG2D and DAP10; conditions = with: MICA-Alexa647; how to read = baseline: positive control; quantity = maximum inhibition; result = 68%
Compound = C[C@]1(COC(=O)c2ccc(O)c(O)c2)[C@H](C(=O)O)N2C(=O)/C(=C/c3ccccn3)[C@H]2S1(=O)=O; target = Beta-lactamase (ampC, Pseudomonas aeruginosa, UniProt P24735); test = enzyme activity, inhibitor, absorbance; quantity = kinact/KI; result = 2.9e+06 M⁻¹ s⁻¹
Compound = CC[C@H](C)[C@H](NC(=O)[C@H](Cc1c[nH]cn1)NC(=O)[C@H](CCCCNC(=O)[C@@H](NC(=O)[C@H](CCCCN)NC(=O)CSC[C@H](NC(=O)[C@H](Cc1ccccc1)NC(=O)[C@H](CCCCNC(=O)[C@H](CC(C)C)NC(=O)[C@@H]1CCCN1C(=O)[C@H](CCCCN)NC(=O)c1ccc(O[C@@H]2O[C@H](CO)[C@H](O)[C@H](O)[C@H]2O)cc1)NC(=O)[C@H](CC(C)C)NC(=O)[C@@H]1CCCN1C(=O)[C@H](CCCCN)NC(=O)c1ccc(O[C@@H]2O[C@H](CO)[C@H](O)[C@H](O)[C@H]2O)cc1)C(N)=O)[C@@H](C)CC)NC(=O)[C@@H](NC(=O)[C@H](CCCCN)NC(=O)CSC[C@H](NC(=O)[C@H](Cc1ccccc1)NC(=O)[C@H](CCCCNC(=O)[C@H](CC(C)C)NC(=O)[C@@H]1CCCN1C(=O)[C@H](CCCCN)NC(=O)c1ccc(O[C@@H]2O[C@H](CO)[C@H](O)[C@H](O)[C@H]2O)cc1)NC(=O)[C@H](CC(C)C)NC(=O)[C@@H]1CCCN1C(=O)[C@H](CCCCN)NC(=O)c1ccc(O[C@@H]2O[C@H](CO)[C@H](O)[C@H](O)[C@H]2O)cc1)C(N)=O)[C@@H](C)CC)C(N)=O; target = PA-I galactophilic lectin (lecA, Pseudomonas aeruginosa, UniProt Q05097); test = binding, isothermal titration calorimetry; conditions = divided by galactoside copies; how to read = baseline: monovalent galactoside KD over ligand KD; quantity = relative potency per galactoside; result = 32
Compound = CN(C)C(=O)[C@@H](NC(=O)c1cc(-c2ccnn2C)ccc1-c1ccc(C(F)(F)F)cc1)c1cccc(C(F)(F)F)c1; target = KLRK1 with MICA; test = ligand binding, inhibitor, TR-FRET; system = HEK293 expressing NKG2D and DAP10; conditions = with: MICA-Alexa647; how to read = baseline: positive control; quantity = maximum inhibition; result = 101%
Compound = C=CC(=O)Nc1cc(-c2nn(C3CCC(N4CCN(C(C)=O)CC4)CC3)c3ncnc(N)c23)ccc1Oc1ccccc1 (stereo not drawn); target = Receptor tyrosine-protein kinase erbB-3 (ERBB3, Homo sapiens, UniProt P21860); test = binding, LanthaScreen FRET; quantity = time to IC50 plateau; result = ~3 h
Compound = O=C1NC(=O)c2c1c1cc(F)c[n+]3c1c1c2c2cc(O)ccc2[n]1[Ru-4]312([N]=C=S)[S+]3CC[S+]1CC[S+]2CC3 (stereo not drawn); target = Ribosomal protein S6 kinase beta-1 (RPS6KB1, Homo sapiens, UniProt P23443); test = kinase activity, inhibitor; conditions = 100 nM, with: 10 µM ATP; quantity = remaining activity; result = 7%
Compound = CC[C@H](C)[C@H](NC(=O)[C@H](CO)NC(=O)[C@H](Cc1ccc(O)cc1)NC(=O)[C@H](CCCCN)NC(=O)[C@@H]1CCCN1C(=O)[C@H](CCSC)NC(=O)[C@@H](N)Cc1ccccc1)C(=O)O; target = OGT; test = enzyme activity, fluorescence activity; quantity = highest concentration without inhibition; result = > 100 µM
Compound = CCCCC/C=C\C/C=C\C/C=C\C/C=C\CCCC(=O)NCCc1ccc(O)c(O)c1; target = KCNQ3/KCNQ2; test = two-electrode voltage clamp; system = Xenopus oocytes; conditions = 10 and 100 µM; quantity = maximal conductance; result = no effect
Compound = CC(C)C[C@@H](N)C(=O)NCC(=O)N[C@H](C)C(=O)N[C@H](CO)C(=O)N[C@H](Cc1c[nH]c2ccccc12)C(=O)N[C@H](Cc1c[nH]cn1)C(=O)N[C@H](CCCNC(=N)N)C(=O)N1CCC[C@@H]1C(=O)N[C@H](CC(=O)O)C(=O)N[C@H](CCCCN)C(=O)N[C@H](CCCCN)C(=O)N[C@H](CCCNC(=N)N)C(=O)NCCCCCC(=O)N[C@@H](CCCCN)C(=O)N[C@@H](CCCNC(=N)N)C(=O)N[C@@H](CCCCN)C(=O)N[C@H](C(=O)N[C@@H](CC(N)=O)C(=O)N[C@@H](CC(N)=O)C(=O)N[C@@H](CC(N)=O)C(=O)N1CCC[C@H]1C(=O)N[C@@H](CCCNC(=N)N)C(=O)N[C@H](C(=O)N[C@@H](CS)C(N)=O)[C@@H](C)O)[C@@H](C)O; target = C-X-C chemokine receptor type 4 (CXCR4, Homo sapiens, UniProt P61073, R30A); test = antibody 12G5 binding; conditions = 200 nM, R30A mutant vs wild type; quantity = binding affinity change; result = increased
Compound = C[n+]1ccc(C(=O)NC2CCC3(O)C4Cc5ccc(O)c6c5C3(CC[N+]4(C)CC3CC3)C2O6)cc1 (stereo not drawn); target = Delta-type opioid receptor (Oprd1, Mus musculus, UniProt P32300); test = G protein activation, agonist; how to read = baseline: 3 µM SNC80; quantity = Emax; result = 6.76 ± 2.02%
Compound = O=C(N[C@H]1CCOC1=O)c1ccc(-n2cc(-c3cccc(C(=O)N[C@H]4CCOC4=O)c3)nn2)cc1; target = lasR; test = reporter gene, agonist; system = Escherichia coli, DH5α pJN105L/pSC11; conditions = 100 µM; how to read = baseline: OdDHL at same concentration; quantity = activation; result = 1%
Compound = OC(CCNCCc1c[nH]c2ccccc12)C(F)(F)F (stereo not drawn); target = Amyloid-beta precursor protein, amyloid-beta 1-40 oligomers (APP, Homo sapiens, UniProt P05067); test = binding, STD NMR; conditions = highest STD; quantity = STD NMR signal; result = 2.77%
Compound = O=C(Cn1cc(-c2cccc(-c3cn(CC(=O)N[C@H]4CCOC4=O)nn3)c2)nn1)N[C@H]1CCOC1=O; target = lasR; test = reporter gene, agonist; system = Escherichia coli, DH5α pJN105L/pSC11; conditions = 100 µM; how to read = baseline: OdDHL at same concentration; quantity = activation; result = 8%
Compound = CCN(Cc1ccccc1)C(=O)CCc1nc(CN2CCN(C(=O)Cc3ccc(OC)c(OC)c3)CC2)no1; target = KCNQ3/KCNQ2; test = potassium current, opener, whole-cell patch clamp; system = CHO stable; conditions = 10 µM; how to read = baseline: control; quantity = current fold increase; result = 1.23 ± 0.04
Compound = C=C(CC)C(=O)c1ccc(OCC(=O)NCCNC(=O)COc2ccc(C(=O)C(=C)CC)c(Cl)c2Cl)c(Cl)c1Cl; target = Glutathione S-transferase Mu 2 (Homo sapiens, UniProt P28161); test = enzyme activity, inhibitor; conditions = no preincubation; how to read = baseline: GSTA IC50 over GSTM IC50; quantity = selectivity ratio; result = ~15 fold
Compound = CC[C@H](C)[C@@H]1NC(=O)[C@H](Cc2ccc(O)cc2)NC(=O)[C@@H](N)CSSC[C@@H](C(=O)N2CCC[C@H]2C(=O)N[C@@H](CC(C)C)C(=O)NCC(N)=O)NC(=O)[C@H](CC(N)=O)NC(=O)[C@H](CCC(N)=O)NC1=O; target = Oxytocin receptor (Macaca mulatta, UniProt P56494); test = membrane hyperpolarisation; system = CHO cells; quantity = Emax; result = 2270 RFU
Compound = CC(C)C[C@@H](N)C(=O)NCC(=O)N[C@H](C)C(=O)N[C@H](CO)C(=O)N[C@H](Cc1c[nH]c2ccccc12)C(=O)N[C@H](Cc1c[nH]cn1)C(=O)N[C@H](CCCNC(=N)N)C(=O)N1CCC[C@@H]1C(=O)N[C@H](CC(=O)O)C(=O)N[C@H](CCCCN)C(=O)N[C@H](CSSC[C@@H](NC(=O)[C@@H](CCCCN)NC(=O)[C@@H](CC(=O)O)NC(=O)[C@H]1CCCN1C(=O)[C@@H](CCCNC(=N)N)NC(=O)[C@@H](Cc1c[nH]cn1)NC(=O)[C@@H](Cc1c[nH]c2ccccc12)NC(=O)[C@@H](CO)NC(=O)[C@@H](C)NC(=O)CNC(=O)[C@H](N)CC(C)C)C(=O)N[C@H](C)C(=O)N[C@H](CC(C)C)C(=O)NCC(=O)N[C@H](Cc1ccc(O)cc1)C(=O)N[C@H](CCC(N)=O)C(=O)N[C@H](CCCCN)C(=O)N[C@H](CCCNC(=N)N)C(=O)N1CCC[C@@H]1C(=O)N[C@H](CC(C)C)C(=O)N1CCC[C@@H]1C(N)=O)C(=O)N[C@H](C)C(=O)N[C@H](CC(C)C)C(=O)NCC(=O)N[C@H](Cc1ccc(O)cc1)C(=O)N[C@H](CCC(N)=O)C(=O)N[C@H](CCCCN)C(=O)N[C@H](CCCNC(=N)N)C(=O)N1CCC[C@@H]1C(=O)N[C@H](CC(C)C)C(=O)N1CCC[C@@H]1C(N)=O; target = C-X-C chemokine receptor type 4, N-terminus deleted (2-25) (CXCR4, Homo sapiens, UniProt P61073); system = 293 cells, stably transfected; conditions = 300 nM, with: 12G5 antibody 5 µg/mL; how to read = baseline: wild type; quantity = 12G5 antibody binding increase; result = 15%
Compound = CN[C@@H](C)C(=O)N[C@H](C(=O)N1C[C@@H](NC(=O)COCCOCCOCCOCc2cn(CCNC(=O)CN(Cc3cccs3)C(=O)[C@H](NS(=O)(=O)c3cc4ccc(O)nc4cc3Cl)c3ccccc3OC)nn2)C[C@H]1C(=O)N[C@@H]1CCCc2ccccc21)C1CCCCC1; target = OGT; test = western blot; system = MM1.S; conditions = 0.1, 1.0 and 10 µM, 16 h; quantity = protein level; result = no effect
Compound = CC(C)C[C@H](NC(=O)[C@@H](N)Cc1ccccc1)C(=O)O; target = Amyloid-beta precursor protein, Aβ40 (APP, Homo sapiens, UniProt P05067); test = binding, ion mobility MS, item: Aβ dimer; quantity = dimer bound; result = 69 ± 4.5%

A few entries again:
Compound = CNC(=O)C(NC(=O)c1ccccc1-c1ccc(C(F)(F)F)cc1)c1cccc(C(F)(F)F)c1 (stereo not drawn); target = KLRK1 with MICA; test = ligand binding, inhibitor, TR-FRET; system = HEK293 expressing NKG2D and DAP10; conditions = with: MICA-Alexa647; how to read = baseline: positive control; quantity = maximum inhibition; result = 68%
Compound = C[C@]1(COC(=O)c2ccc(O)c(O)c2)[C@H](C(=O)O)N2C(=O)/C(=C/c3ccccn3)[C@H]2S1(=O)=O; target = Beta-lactamase (ampC, Pseudomonas aeruginosa, UniProt P24735); test = enzyme activity, inhibitor, absorbance; quantity = kinact/KI; result = 2.9e+06 M⁻¹ s⁻¹
Compound = CC[C@H](C)[C@H](NC(=O)[C@H](Cc1c[nH]cn1)NC(=O)[C@H](CCCCNC(=O)[C@@H](NC(=O)[C@H](CCCCN)NC(=O)CSC[C@H](NC(=O)[C@H](Cc1ccccc1)NC(=O)[C@H](CCCCNC(=O)[C@H](CC(C)C)NC(=O)[C@@H]1CCCN1C(=O)[C@H](CCCCN)NC(=O)c1ccc(O[C@@H]2O[C@H](CO)[C@H](O)[C@H](O)[C@H]2O)cc1)NC(=O)[C@H](CC(C)C)NC(=O)[C@@H]1CCCN1C(=O)[C@H](CCCCN)NC(=O)c1ccc(O[C@@H]2O[C@H](CO)[C@H](O)[C@H](O)[C@H]2O)cc1)C(N)=O)[C@@H](C)CC)NC(=O)[C@@H](NC(=O)[C@H](CCCCN)NC(=O)CSC[C@H](NC(=O)[C@H](Cc1ccccc1)NC(=O)[C@H](CCCCNC(=O)[C@H](CC(C)C)NC(=O)[C@@H]1CCCN1C(=O)[C@H](CCCCN)NC(=O)c1ccc(O[C@@H]2O[C@H](CO)[C@H](O)[C@H](O)[C@H]2O)cc1)NC(=O)[C@H](CC(C)C)NC(=O)[C@@H]1CCCN1C(=O)[C@H](CCCCN)NC(=O)c1ccc(O[C@@H]2O[C@H](CO)[C@H](O)[C@H](O)[C@H]2O)cc1)C(N)=O)[C@@H](C)CC)C(N)=O; target = PA-I galactophilic lectin (lecA, Pseudomonas aeruginosa, UniProt Q05097); test = binding, isothermal titration calorimetry; conditions = divided by galactoside copies; how to read = baseline: monovalent galactoside KD over ligand KD; quantity = relative potency per galactoside; result = 32
Compound = CN(C)C(=O)[C@@H](NC(=O)c1cc(-c2ccnn2C)ccc1-c1ccc(C(F)(F)F)cc1)c1cccc(C(F)(F)F)c1; target = KLRK1 with MICA; test = ligand binding, inhibitor, TR-FRET; system = HEK293 expressing NKG2D and DAP10; conditions = with: MICA-Alexa647; how to read = baseline: positive control; quantity = maximum inhibition; result = 101%
